Assay results of several laboratories.
Each numbered part is a random draw from the data of one study; scales do not carry over between parts. Positions count from the first letter of the parent shown.

Study 1 — technique: RNA Bind-n-Seq; form: RNA; matrix: in vitro; tested at: 365 nM; relative to: no-protein control; reading: higher = stronger binding
Target: RNA binding protein fox-1 homolog 2, RRM domain, GST-SBP tag (RBFOX2, Homo sapiens, UniProt O43251-10, residues 100-194)
Setting: natural RNA segment, single round, ends assumed
All sequences stand within: GGGAGUUCUACAGUCCGACGAUC … UGGAAUUCUCGGGUGCCAA
Construct (chain): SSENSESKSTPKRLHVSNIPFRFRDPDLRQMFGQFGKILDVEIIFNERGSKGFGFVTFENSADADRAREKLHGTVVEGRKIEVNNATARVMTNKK
| Sequence | RBNS enrichment (R) |
| --- | --- |
| UUGCCGGGGAGGAGGAUGCUCUGAGAUUCAGGGUGGGGCUGGCAACCCCUGAAGAGAACACUUCCUGUUGGUCUGUCUCUUCCCACCUUCCAUCUGCACACACCCCCAAG | 0.706 |
| UCUCGGGCCCCGUAGGUACCAAGAGACUGUUUACCUCCCAGAAUGUUUGGGCUUGAAGUUACAUUAAAGUGAAGUUAUUUGAAAGAAAGAAAACCUCAUCAUUUCUAAGG | 0.756 |
| AUCCCUUUGGGUACCAUUUUUAUUGUUUUAUGUAGAAUGUUAGAAAUUACCACUAAUUUACCUGGCAGUGAUGUCAAAUUGACUGUAAUUAGCAGGUAGAAAAUUAUUUG | 0.38 |
| GCAGGCACUGUGGGGUCCUGAGGGCCAGUGGGUCCAUUUCACCUCUUGCUGCAUGAUGGUCAGUAGCUGAUCUGUUAUGGCAUUCACUUCCAGAUUAAUUUUCCGUGUUU | 20 |
| AAGCCCCUCCUGCCAGUCCCUGUCCCCUUUCAGCCCACCAGUCCCUCUCUGCUGCCGGUGAUGGGAGGCCUUUCUAGACCUGGCUCUUUCUCUCCCGUCUCAGUGGCUUC | 0.432 |
| UAAUUGGGAUUAUUUUUUAAAAGAGGUCUUUCUCCCCGAAAUACAAGUUUUAGAAAAUCUUAGAAGAGGGGUGGGUGCAUGUCUUAAUGCUGGGAAGCGGCAACUUUGGG | 2.8 |
| CACGCUCACCCGCUUCAGUGCGGCUCUGUCCCUGCUGCCGCCUCCAGUCCUGAGGGAGGGGCUUGCCCCACCUUCUACAUUCCAAUUUUUAUAUCUUUGAAUUAUGUGAU | 0.189 |
| UAUUCAGAGAGAUGUUUGUCACCUUUCUUUUUGGUAGACCUGUUGGGUUGGUUCCUAUUACAUGAGCUCUUUUGCAGAUAGCACAUUCAGUAGCCUUAUCCUGUUGGUGG | 0.558 |
| GCAUUUUGUAACGUCCAGUGUGGCGUUGAAUAGAUGUGUAUUUCCUCCCCUGCAGAAAAUAAGCACAGAAAAUUAUAAUGUAGGUGAUCGGAGCUCUUUCCUUUGAUAGA | 0.439 |
| GCAAGUGCGAUCAGCAACAUUUUUCAACUUUCGCGCACUGUAAACCUAUUGCAUUCUUAGGCUACUGUGAGGUCUAUGUUUCUUGUACCUGAAAUUGUCCUUUGGACUCC | 3.57 |
| CCUCUGGCACAUUUCCUCUCCUGCCUCUGCUUGAAAAGGAAACCAGAAGCCGAACAAGUGAGAGUAAUGUAUAAUUCUCUCAUUUUUUUGUAGGUCUCUAAUAAAGAACU | 0.202 |
| CUUCCCUGCUAUCCUUUUUCUCCUUUGGAGGUGCCCAACCUCCUCCACCCCCUUCCCCUACUCUAGGGGAGAGAGCUGCUAGUGAGAUGACUGUUUUAUAAAGAAAUGGA | 0.412 |

Study 2 — technique: RNA Bind-n-Seq; form: RNA; matrix: in vitro; tested at: 20 nM; setting: 6-mer, flanks averaged, single round; added: 150 mM LiCl; relative to: input library; reading: higher = stronger binding
Target: TAR DNA-binding protein 43, full length, His tag (TARDBP, Homo sapiens, UniProt Q13148, residues 1-414)
| Sequence | 6-mer enrichment (R) |
| --- | --- |
| ACCUUC | 0.876 |
| UGUAGA | 1.17 |
| AACGUA | 0.843 |
| UGACAG | 0.903 |
| CAGACU | 0.811 |
| AGAAGC | 0.898 |
| UAACCC | 0.958 |
| CAGUUC | 0.856 |
| CGUAUC | 0.855 |
| ACAAUU | 0.947 |
| GUUAUG | 1.27 |
| GAAGUU | 0.942 |
| ACGCCC | 0.981 |
| CCGCGA | 0.858 |
| AAUUCA | 0.897 |
| AAGCAA | 0.848 |

Study 3 — technique: protein binding microarray; form: double-stranded DNA, one strand shown; matrix: in vitro; tested at: not given; relative to: not given; reading: higher = stronger binding
Target: Histone acetyltransferase KAT6A, winged helix 1, GST fusion (KAT6A, Homo sapiens, UniProt Q92794, residues 1-85)
Setting: 8-mer, flanks averaged, mean of 2 arrays, mostly near background
Residues (chain): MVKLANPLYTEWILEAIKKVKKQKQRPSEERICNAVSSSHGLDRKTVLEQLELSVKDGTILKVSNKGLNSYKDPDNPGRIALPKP
| Sequence | E-score |
| --- | --- |
| CAGAATAG | -0.101 |
| GTGCTGTA | -0.136 |
| AAATAATT | -0.045 |
| CCGATTCG | 0.115 |
| AACAAATA | -0.159 |
| AAGCGTTC | 0.00601 |
| CCGACGTA | 0.267 |
| ATTATTTC | -0.071 |
| GATGGAAA | -0.0658 |
| CGATCCTC | -0.108 |
| GGCACGGA | 0.197 |
| ATCTAGCA | -0.18 |
| ATACTCCA | -0.0682 |
| AAACCTCG | -0.0621 |
| AACCCACG | -0.189 |
| ACTTGTAG | -0.0937 |
| GCTCTAGA | -0.0168 |
| AGCAGTAT | -0.178 |

Study 4 — technique: universal PBM; form: double-stranded DNA, one strand shown; matrix: in vitro; tested at: not given; reading: higher = stronger binding
Target: Sal-like protein 4, full length isoform B (SALL4, Homo sapiens, UniProt Q9UJQ4-2, residues 1-616)
Setting: 8-mer, flanks averaged, mean of replicates
Target sequence (chain): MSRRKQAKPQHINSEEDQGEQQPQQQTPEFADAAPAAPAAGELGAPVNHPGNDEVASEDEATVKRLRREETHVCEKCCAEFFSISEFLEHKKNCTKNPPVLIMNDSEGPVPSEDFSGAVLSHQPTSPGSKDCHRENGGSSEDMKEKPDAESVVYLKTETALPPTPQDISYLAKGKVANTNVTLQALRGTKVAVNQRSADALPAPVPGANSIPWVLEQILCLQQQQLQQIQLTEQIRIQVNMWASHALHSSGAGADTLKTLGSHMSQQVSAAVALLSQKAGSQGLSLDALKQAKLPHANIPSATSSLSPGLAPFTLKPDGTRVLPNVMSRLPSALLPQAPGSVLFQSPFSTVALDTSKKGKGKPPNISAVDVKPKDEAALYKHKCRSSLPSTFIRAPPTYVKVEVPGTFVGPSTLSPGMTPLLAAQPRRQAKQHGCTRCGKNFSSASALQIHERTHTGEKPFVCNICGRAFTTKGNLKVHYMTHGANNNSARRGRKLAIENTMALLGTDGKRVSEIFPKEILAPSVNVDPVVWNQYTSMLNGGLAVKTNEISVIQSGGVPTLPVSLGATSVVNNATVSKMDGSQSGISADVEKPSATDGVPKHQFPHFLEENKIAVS
| Sequence | E-score |
| --- | --- |
| CGGTAGGA | -0.171 |
| GCGGACGC | -0.271 |
| ATGTCAAA | 0.269 |
| AACGTTTC | 0.174 |
| GGGGAGAA | -0.125 |
| CGCGTAAC | -0.0715 |
| CGCCCTTA | -0.089 |
| GTTTGCCA | -0.049 |
| CATAGCGG | -0.128 |
| CACGAATA | 0.251 |
| GAATTAGC | 0.0307 |
| AGATACAG | 0.208 |
| ATATCCCG | -0.0138 |
| AACCCATC | -0.136 |
| CCCCGAAA | -0.0486 |
| AATTTTAT | 0.354 |
| ACGTGGCC | -0.18 |
| CCCGGGCC | -0.452 |
| AATTCCTG | 0.0853 |
| GCTCAACA | -0.0974 |
| AGTGTGTA | 0.0402 |
| ACCCAGGT | -0.315 |
| ATCGTGAG | -0.0845 |
| CGTATTTA | 0.24 |
| GACTCCTA | -0.2 |

Study 5 — target: CEBPA, bZIP domain (human); technique: DHFR protein complementation; matrix: yeast; relative to: wild-type JUN-FOS pair; reading: higher = stronger binding
Setting: single substitutions, most at no-binding floor
Parent: JUN, bZIP domain (human); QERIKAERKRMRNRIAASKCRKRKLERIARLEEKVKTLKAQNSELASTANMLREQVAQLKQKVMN; partner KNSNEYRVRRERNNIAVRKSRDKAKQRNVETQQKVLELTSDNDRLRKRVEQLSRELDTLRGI
| Substitution | binding fitness |
| --- | --- |
| R53T | -1.33 natural log |
| I28A | -1.42 natural log |
| E54K | -1.61 natural log |
| S47R | -1.33 natural log |
| E33H | -1.36 natural log |
| Q55W | -1.51 natural log |
| K36R | -1.38 natural log |
| R30Y | -1.58 natural log |
| S47Q | -1.34 natural log |
| L52E | -1.51 natural log |
| L31M | -1.14 natural log |
| A49K | -1.4 natural log |
| K34Y | -1.4 natural log |
| I28F | -1.44 natural log |
| T48K | -1.42 natural log |
| A40F | -1.42 natural log |
| E54H | -1.36 natural log |
| V56S | -1.58 natural log |
| T48I | -1.36 natural log |
| E32I | -1.54 natural log |
| S47W | -1.27 natural log |
| L45F | -1.44 natural log |
| Q41A | -1.53 natural log |
| E33K | -1.37 natural log |
| L52T | -1.47 natural log |
